Experimental data gathered from unrelated publications.
Numbered parts are unrelated; each lists some results of a single study. Positions count from the first letter of the parent shown.

Study 1 — target: JUNB, bZIP domain (human); method: DHFR protein complementation; medium: yeast; relative to: wild-type JUN-FOS pair; reading: higher = stronger binding
Notes: single substitutions, most at no-binding floor
Starting sequence: JUN, bZIP domain (human); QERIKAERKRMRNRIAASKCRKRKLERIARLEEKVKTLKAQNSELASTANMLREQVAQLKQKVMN; partner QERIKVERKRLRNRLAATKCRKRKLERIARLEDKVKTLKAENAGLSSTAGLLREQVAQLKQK
| Variant | binding fitness [natural log] |
| --- | --- |
| L31S | -1.5 |
| S43V | -1.12 |
| K34E | -0.823 |
| I28H | -1.38 |
| A40F | -1.32 |
| S43H | -1.02 |
| E33H | -1.24 |
| T48W | -1.46 |

Study 2 — method: RNA Bind-n-Seq; molecule type: RNA; medium: in vitro; concentration: 365 nM; relative to: no-protein control; reading: higher = stronger binding
Target: RNA binding protein fox-1 homolog 2, RRM domain, GST-SBP tag (RBFOX2, Homo sapiens, UniProt O43251-10, residues 100-194)
Notes: natural RNA segment, single round, ends assumed
Construct (chain): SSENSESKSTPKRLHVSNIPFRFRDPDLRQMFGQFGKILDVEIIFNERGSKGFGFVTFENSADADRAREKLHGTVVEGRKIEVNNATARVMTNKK
| Oligonucleotide | RBNS enrichment (R) |
| --- | --- |
| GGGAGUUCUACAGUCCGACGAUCAGGAGGAGGACUGGCUGCCUCCAUUUUGCCUUGUUUGUUAGUUUGCCUGGGUCUGUCUGAGGAAGGAGGGGGUCCCGCCUUCCACCUCAACACAUCCCUUCAGUGACUCAUGGAAUUCUCGGGUGCCAA | 1.53 |
| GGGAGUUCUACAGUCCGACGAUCCACAUAGUAGGUGCUUGGUAAAAUAUCUGUGGUACUGAAUGUUGAGCACAGGUGCCCAAGUCAGAGAGCUGAAAGCCAUCACCCAAUGACUGCCCCUUCAUUCGGGUCUCUGGAAUUCUCGGGUGCCAA | 1.46 |
| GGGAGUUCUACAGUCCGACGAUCGCCCCUAUGUGCCUAGAUGGUUUGGGGCUACUGGUGCGUGCAGGAGAGGUGGGGUCACCCAAGCUGAGUGCCAUCUUUUCCUGAAUGUCAGAUCUGCAGCCUCGGGGACUUGGAAUUCUCGGGUGCCAA | 0.428 |
| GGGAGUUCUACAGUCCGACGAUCACAGUCCUUUAUCCACCUGGAUUUUUAGGGAAAAAAAUGAAAAAGAAUAAGUCACAUUGGUUCCAUGGCCACAAACCAUUCAGAUCAGCCACUUGCUGACCCUGGUUCUUUGGAAUUCUCGGGUGCCAA | 0.324 |
| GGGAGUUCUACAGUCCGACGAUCCUCCUCUUGGGGAAAUUGUGUAUGUAUUCACUUAGGUCAAAGCCUGACCUUCGAGCAACCUCUCCUAGCCAAUAUAUUAUUCCAGAGACCAGGAUGACCUAGCAGGCAGGUGGAAUUCUCGGGUGCCAA | 0.706 |
| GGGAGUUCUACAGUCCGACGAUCGUAUGUCUAUUGAUCCAUUUCUAGAAAAGAUGGUCGUAACUUAAGGAGUGAUAUUUGUGGAGGAGGAGCUGUACAGUUAUCACUGUGUGUGUUUUGUUAAUACAAGAGGCUGGAAUUCUCGGGUGCCAA | 0.598 |
| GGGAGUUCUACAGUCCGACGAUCGAUUUGGUCCCAGAAACCAGCCUGACAUGAGAACAAGCCAGGGUGUCUUCCUGGUGAGUUCUACUCAUGGUCGUUCUCAGGAAAACUGUGUUCCCUUUGUGUGUACGUUUUGGAAUUCUCGGGUGCCAA | 8.91 |
| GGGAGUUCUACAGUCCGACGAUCAGCACUGCCACCUUGUGUCCAUAUAGCACAAUGUUUCUCUUUCCUAUUCACAGACAAGAUUCAAGAAACCAUUUUUACGUGUGUACAUUCAAAUCUUCAUGAAUGGCAUCUGGAAUUCUCGGGUGCCAA | 0.461 |
| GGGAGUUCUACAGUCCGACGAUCGUUCCUGUGUCAUCUUCACAUCUAGCAGAGCACGGAUGUGUUUGCAUGCUGUGCUCUUGGAGCUUGUCCUGUCUUCUGGAAGCCCUGGACAAGGCGUGUGAAGGCUUCCCUGGAAUUCUCGGGUGCCAA | 1.06 |

Study 3 — method: DHFR PCA, deep sequencing; medium: yeast; with: (+)-ABA 2500 µM; relative to: wild-type fitted maximum; reading: higher = stronger binding
Target: ABI1, truncated, D143A, DHFR fusion (Arabidopsis thaliana)
Notes: methotrexate growth selection, single substitutions
Starting sequence: PYL1, truncated, DHFR fusion (Arabidopsis thaliana); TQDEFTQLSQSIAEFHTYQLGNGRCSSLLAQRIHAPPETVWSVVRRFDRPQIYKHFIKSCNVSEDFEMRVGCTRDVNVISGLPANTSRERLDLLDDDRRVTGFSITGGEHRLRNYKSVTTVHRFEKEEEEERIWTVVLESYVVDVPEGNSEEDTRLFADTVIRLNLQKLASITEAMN
| Variant | relative binding score |
| --- | --- |
| L91C | 91.8% |
| Q2G | 80% |
| N177P | 99.2% |
| E139R | 56.8% |
| W134K | 99.9% |
| E130N | 103% |
| L93K | 99.6% |

Other studies, line by line
| Substance | target | assay | system | setting | how to read | quantity | value |
| --- | --- | --- | --- | --- | --- | --- | --- |
| PhoQ, residues 284 288 289 292 302 303 SSTMSV | PhoP, residues 12 14 15 18 19 LYHSL (Escherichia coli, UniProt P23836) | Sort-seq, item: YFP reporter | E. coli | PhoQ-PhoP variant library, with: 10 µM Mg2+ | relative to: high Mg2+ state, higher = stronger signaling | fold induction | 9.55 |

For quick reference, copied from above (study 3):
| Variant | relative binding score |
| --- | --- |
| W134K | 99.9% |
| E130N | 103% |
| L93K | 99.6% |
